Measured values from different studies.
Protocols differ between the studies behind these lines. Numbers after ± are the reported error.
SCTR: Secretin receptor (SCTR, Homo sapiens, UniProt P47872)
POLB: DNA polymerase beta (POLB, Homo sapiens, UniProt P06746)

The enzyme activity of `CN1CCN(CC(=O)N2N=C3/C(=C/c4ccccc4)CCCC3C2c2ccccc2)CC1` (mixture of isomers) is reported as 75% (Polyunsaturated fatty acid lipoxygenase ALOX12 (ALOX12, Homo sapiens, UniProt P18054); activator; 10 µM, together with: arachidonic acid 10 µM; baseline: activator 0 µM).
`Clc1ccc(-c2n[nH]cc2CN2CCN(C34CC(C3)C4)CC2)cc1` gave an Emax of 73.8% (5-hydroxytryptamine receptor 2C (HTR2C, Homo sapiens, UniProt P28335); β-arrestin recruitment, agonist).
`[11CH3]Nc1ccc(-c2nc3ccc(O)cc3o2)cn1`: “distribution volume ratio” 1.2 ± 0.07 (Amyloid-beta precursor protein (APP, Homo sapiens, UniProt P05067); binding, PET, reference Logan; Alzheimer's disease patients, hippocampus; baseline: cerebellum).
`O=C(Nc1ccccc1)Nc1ccc2c(c1)OC(F)(F)O2` has a remaining activity of 1.15 ± 0.01 fold (Signal peptidase IB (spsB, Staphylococcus aureus, UniProt Q5HHB9); enzyme activity, FRET peptide cleavage; Staphylococcus aureus membranes; 50 µM; baseline: DMSO).
For `COc1ccc(-c2cc(C(F)(F)F)nc(NCc3ccc(F)cc3)n2)cc1OC`, the Emax was 15% (SCTR; cAMP, agonist).
For `Nc1nc2c(ncn2[C@H]2C[C@H](O)[C@@H](COP(=O)(O)OP(=O)(O)CP(=O)(O)O)O2)c(=O)[nH]1`, the kpol/Kd was 2.6 ± 0.45 M⁻¹ s⁻¹ (POLB; nucleotide incorporation, substrate, single turnover kinetics; dG misincorporation opposite A).
For `CNc1ccccc1C(=O)O[C@H]1[C@@H](O)[C@H](n2ccc(N)nc2=O)O[C@@H]1COP(=O)(O)OP(=O)(O)O`, “potency loss on γ-phosphate deletion” read 5 to 30 fold (ADCY5 (Canis lupus, UniProt P30803); Sf9 membranes; baseline: NDP over NTP).
`Cc1cc(=O)oc2c(F)c(OP(=O)(O)O)c(F)cc12` has a kcat of 52.9 ± 1.78 s⁻¹ (Tyrosine-protein phosphatase non-receptor type 11 (PTPN11, Homo sapiens, UniProt Q06124, E76A); dephosphorylation, substrate).
The Emax of `COc1ccccc1-c1cc(C(F)(F)F)nc(S(=O)(=O)CCCC(=O)Nc2ccc(F)cc2F)n1` is reported as 40 ± 11% (SCTR; cAMP accumulation, positive allosteric modulator; CHO-K1 overexpressing SCTR; together with: EC10-EC20 secretin peptide mix; baseline: EC95 peptide mix).
The remaining activity of `CC(=O)N[C@@H](Cc1c[nH]c2ccccc12)C(=O)N[C@@H](Cc1c[nH]c2ccccc12)C(=O)N[C@@H](Cc1c[nH]c2ccccc12)C(=O)N[C@@H](Cc1c[nH]c2ccccc12)C(=O)N[C@@H](Cc1c[nH]c2ccccc12)C(=O)N[C@@H](Cc1c[nH]c2ccccc12)C(=O)N[C@@H](Cc1c[nH]c2ccccc12)C(=O)NCCCC[C@@H]1NC(=O)[C@H](CCCNC(=N)N)NC(=O)[C@H](CCCNC(=N)N)NC(=O)[C@H](CCCNC(=N)N)NC(=O)[C@H](CCCNC(=N)N)NC(=O)[C@H](CCCNC(=N)N)NC1=O` is reported as 119% (Epidermal growth factor receptor (EGFR, Homo sapiens, UniProt P00533); kinase activity, Reaction Biology radiometric; concentration not given, together with: ATP 200 µM; baseline: DMSO).
For `CC[C@H](C)[C@H](NC(=O)[C@@H](NC(=O)[C@H](CCCCN)NC(=O)[C@@H](NC(=O)[C@@H]1CCCN1[C@@H]1CN(C(=O)[C@@H](NC(=O)[C@@H](NC(=O)[C@@H](NC(=O)[C@@H](NC(=O)[C@@H](NC(=O)[C@@H](N)CCCCN)C(C)C)C(C)C)C(C)C)[C@@H](C)CC)[C@@H](C)O)CC[C@H]1NS(=O)(=O)c1ccc(C)cc1)[C@@H](C)O)C(C)C)C(=O)N[C@@H](CC(C)C)C(=O)N[C@@H](Cc1c[nH]cn1)C(N)=O`, “width of rod-like aggregates” read 15.7 ± 0.2 nm (Microtubule-associated protein tau (MAPT, Homo sapiens, UniProt P10636); electron microscopy, refers to: wild-type tau; 96 h, 37 °C, compound to tau ratio 5/1 with tau 10 µM).
`Cc1ccccc1NC(=O)CSc1nc(-c2ccc(Cl)cc2)cc(C(F)(F)F)n1` gave an Emax of 121 ± 9.2% (SCTR; increase of tracer binding, TR-FRET; HEK293 membranes; together with: Fluo-Sec 6 nM).
For `COc1cc(C(=O)c2[nH]c(N)nc2-c2cccs2)cc(OC)c1OC`, enzyme activity read “no inhibition” (alkaline phosphatase; inhibitor; concentration not given).
`CNc1ccccc1C(=O)O[C@H]1C[C@H](n2cnc3c(N)ncnc32)O[C@@H]1COP(=O)(O)OP(=O)(O)O` — result for “dissociation rate constant”: 25.5 ± 1.06 s⁻¹ (Unconventional myosin-Va (Gallus gallus, UniProt Q02440, D297C/G292C/I296C/S293C/V295G); stopped-flow FRET, linear fit intercept; 10 °C, together with: EDTA 4 mM).
The Dmax of `N#Cc1cccc(-c2ccc(=O)n(Cc3cccc(-c4ncc(OCC5CCN(CC(=O)N6CCN(c7ccc8c(c7)C(=O)N(C7CCC(=O)NC7=O)C8=O)CC6)CC5)cn4)c3)n2)c1` (stereo not shown) is reported as 99% (Hepatocyte growth factor receptor (MET, Homo sapiens, UniProt P08581); degrader; EBC-1).
The kpol of `Cc1cn([C@H]2C[C@H](O)[C@@H](COP(=O)(O)OP(=O)(O)C(Br)(Br)P(=O)(O)O)O2)c(=O)[nH]c1=O` is reported as 0.25 ± 0.01 s⁻¹ (POLB; nucleotide incorporation rate, substrate, single-turnover kinetics; single-nucleotide gapped DNA; 37 °C, wild type, correct incorporation, together with: dTTP opposite template A).
`Nc1nc2c(ncn2[C@H]2C[C@H](O)[C@@H](COP(=O)(O)OP(=O)(O)[C@H](F)P(=O)(O)O)O2)c(=O)[nH]1` has a kpol of 2.3 ± 0.4 s⁻¹ (POLB; substrate, quench-flow kinetics; pH 8.0, 37 °C, misincorporation opposite T in gapped DNA).
For `CC(=O)N[C@@H](Cc1ccc(O)cc1)C(=O)N[C@H](C(=O)N[C@@H](C)C(=O)N[C@@H](CC(=O)O)C(=O)Nc1ccc2c(C)cc(=O)oc2c1)C(C)C`, the Vmax was 1670 ± 190 RFU/min (Caspase-4 (CASP4, Homo sapiens, UniProt P49662); substrate cleavage, substrate, fluorogenic AMC release; enzyme 0.25 activity units/µL).
`Nc1nc2c(ncn2C2CC(O)C(COP(=O)(O)OP(=O)(O)C(F)(Cl)P(=O)(O)O)O2)c(=O)[nH]1` (mixture of isomers) gave a kpol of 0.003 ± 0.0003 s⁻¹ (DNA polymerase beta (POLB, Homo sapiens, UniProt P06746, I260M); nucleotide incorporation rate, substrate, single-turnover kinetics; single-nucleotide gapped DNA; 37 °C, I260M, misincorporation, together with: dGTP opposite template A).
`NC(=O)CN1C(=O)C(O)(CC(=O)c2cccc(N)c2)c2ccccc21` (stereo not shown) has a ΔG of -7.79 kcal/mol (uncharacterized protein (Leishmania donovani, UniProt A0A3Q8IA09); competitive ITC; together with: glutamate 60 µM).
The kpol/Kd of `Cc1cn(C2CC(O)C(COP(=O)(O)OP(=O)(O)C(F)P(=O)(O)O)O2)c(=O)[nH]c1=O` (mixture of isomers) is reported as 220000 ± 30000 M⁻¹ s⁻¹ (POLB; substrate, single turnover kinetics).
The kinact of `O[C@@H]1[C@@H](O)[C@H](O[C@@H]2OC[C@@H](O)[C@H](O)[C@H]2O)C[C@H]2O[C@@H]12` is reported as 0.0435 s⁻¹ (Exo-1,4-beta-xylosidase xlnD (xlnD, Emericella nidulans, UniProt Q5BAS1); covalent inhibitor; Aspergillus nidulans; pH 4.5, ambient, together with: 4MU-β-D-xyloside).
For `CCCCCCCCc1ccc(Oc2ccccc2)c(O)c1`, the residence time was 29.6 min (Enoyl-[acyl-carrier-protein] reductase [NADPH] FabI (Staphylococcus aureus, UniProt Q6GI75); enzyme activity, inhibitor, progress curve kinetics).
With `CN1CCN(c2ccc(CNc3ccnc4cc(Cl)ccc34)cc2)CC1` the activation was ≤ 1.5 fold (Nuclear receptor subfamily 4 group A member 2, ligand binding domain (Homo sapiens, UniProt P43354); reporter gene, agonist, Gal4-Nurr1 hybrid reporter; HEK-293T; 30 µM, crude library product; baseline: vehicle (0.1% DMSO)).
For `CCn1c(-c2cc(NC(=O)c3cnccn3)n[nH]2)cc2ccc(OC)cc21`, “IC50 fold shift” read ~35 fold (Casein kinase II subunit alpha' (CSNK2A2, Homo sapiens, UniProt P19784); ATP-competitive test, ADP-Glo; together with: ATP 10 to 500 µM; baseline: high over low ATP).
The Emax of `CCCCCCCC/C=C\CCCCCCCC(=O)O[C@H]1C=CCO[C@H]1COP(=O)(O)S` (stereo partly shown) is reported as 26% (Lysophosphatidic acid receptor 2 (LPAR2, Homo sapiens, UniProt Q9HBW0); agonist, TGFα shedding).
For `COc1cc(C(=O)NC2CCC(N3CCN(CC4CCC5(CCCC5)C4)CC3)CC2)c(F)cc1Nc1ncc2c(n1)N(C1CCCC1(F)F)CC(F)(F)C(=O)N2C` (stereo not shown), the inhibition was 6.51% (Tyrosine-protein kinase JAK3 (JAK3, Homo sapiens, UniProt P52333); cell-free assay, TR-FRET; 10 µM).
`CCC1(O)CCCN(C(=O)c2ccc(-c3ccccc3C(F)(F)F)cc2)C1` (stereo not shown) gave a signal attenuation of 63.8 ± 2.9% (DNA dC->dU-editing enzyme APOBEC-3A (Homo sapiens, UniProt P31941); binding, 1H CPMG NMR).

Repeated from above:
`[11CH3]Nc1ccc(-c2nc3ccc(O)cc3o2)cn1`: “distribution volume ratio” 1.2 ± 0.07 (Amyloid-beta precursor protein (APP, Homo sapiens, UniProt P05067); binding, PET, reference Logan; Alzheimer's disease patients, hippocampus; baseline: cerebellum).
`Cc1cc(=O)oc2c(F)c(OP(=O)(O)O)c(F)cc12` has a kcat of 52.9 ± 1.78 s⁻¹ (Tyrosine-protein phosphatase non-receptor type 11 (PTPN11, Homo sapiens, UniProt Q06124, E76A); dephosphorylation, substrate).
For `CC[C@H](C)[C@H](NC(=O)[C@@H](NC(=O)[C@H](CCCCN)NC(=O)[C@@H](NC(=O)[C@@H]1CCCN1[C@@H]1CN(C(=O)[C@@H](NC(=O)[C@@H](NC(=O)[C@@H](NC(=O)[C@@H](NC(=O)[C@@H](NC(=O)[C@@H](N)CCCCN)C(C)C)C(C)C)C(C)C)[C@@H](C)CC)[C@@H](C)O)CC[C@H]1NS(=O)(=O)c1ccc(C)cc1)[C@@H](C)O)C(C)C)C(=O)N[C@@H](CC(C)C)C(=O)N[C@@H](Cc1c[nH]cn1)C(N)=O`, “width of rod-like aggregates” read 15.7 ± 0.2 nm (Microtubule-associated protein tau (MAPT, Homo sapiens, UniProt P10636); electron microscopy, refers to: wild-type tau; 96 h, 37 °C, compound to tau ratio 5/1 with tau 10 µM).
The kinact of `O[C@@H]1[C@@H](O)[C@H](O[C@@H]2OC[C@@H](O)[C@H](O)[C@H]2O)C[C@H]2O[C@@H]12` is reported as 0.0435 s⁻¹ (Exo-1,4-beta-xylosidase xlnD (xlnD, Emericella nidulans, UniProt Q5BAS1); covalent inhibitor; Aspergillus nidulans; pH 4.5, ambient, together with: 4MU-β-D-xyloside).
